Measured values of several laboratories.
Each line is one published result; not all experiments were run side by side. Values joined by “and” are separate records of one study, mostly repeats; a detail may differ. ± gives the spread as reported.
sdiA: Regulatory protein SdiA (sdiA, Escherichia coli, UniProt P07026)
UniProt P07026, sequence (whole entry, looked up): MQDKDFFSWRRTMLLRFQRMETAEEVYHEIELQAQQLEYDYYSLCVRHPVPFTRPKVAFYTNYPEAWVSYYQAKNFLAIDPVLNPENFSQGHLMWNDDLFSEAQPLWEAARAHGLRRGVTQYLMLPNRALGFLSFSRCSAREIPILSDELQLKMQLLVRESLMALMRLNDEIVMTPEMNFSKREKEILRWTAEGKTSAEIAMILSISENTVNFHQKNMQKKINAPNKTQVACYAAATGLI
KEAP1: Kelch-like ECH-associated protein 1 (KEAP1, Homo sapiens, UniProt Q14145)
UniProt Q14145, sequence (whole entry, looked up): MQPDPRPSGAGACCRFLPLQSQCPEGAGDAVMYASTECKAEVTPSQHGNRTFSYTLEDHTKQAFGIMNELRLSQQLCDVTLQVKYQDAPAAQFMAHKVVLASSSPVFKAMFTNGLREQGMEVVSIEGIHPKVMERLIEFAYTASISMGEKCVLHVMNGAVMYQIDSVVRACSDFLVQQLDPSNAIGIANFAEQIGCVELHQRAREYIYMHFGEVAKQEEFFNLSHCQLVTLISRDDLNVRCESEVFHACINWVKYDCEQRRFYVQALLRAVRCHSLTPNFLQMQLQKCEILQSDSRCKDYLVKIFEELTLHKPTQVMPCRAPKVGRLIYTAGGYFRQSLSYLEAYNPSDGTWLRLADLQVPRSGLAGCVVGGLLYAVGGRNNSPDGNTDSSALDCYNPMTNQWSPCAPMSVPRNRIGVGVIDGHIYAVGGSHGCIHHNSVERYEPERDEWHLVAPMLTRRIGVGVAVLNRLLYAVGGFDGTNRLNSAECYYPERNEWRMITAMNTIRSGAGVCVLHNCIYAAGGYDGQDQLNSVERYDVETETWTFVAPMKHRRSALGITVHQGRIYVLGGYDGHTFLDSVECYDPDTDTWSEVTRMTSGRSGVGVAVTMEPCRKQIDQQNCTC
lasR: Transcriptional activator protein LasR (lasR, Pseudomonas aeruginosa, UniProt P25084)
Oprm1: Mu-type opioid receptor (Oprm1, Rattus norvegicus, UniProt P33535)
UniProt P33535, sequence (whole entry, looked up): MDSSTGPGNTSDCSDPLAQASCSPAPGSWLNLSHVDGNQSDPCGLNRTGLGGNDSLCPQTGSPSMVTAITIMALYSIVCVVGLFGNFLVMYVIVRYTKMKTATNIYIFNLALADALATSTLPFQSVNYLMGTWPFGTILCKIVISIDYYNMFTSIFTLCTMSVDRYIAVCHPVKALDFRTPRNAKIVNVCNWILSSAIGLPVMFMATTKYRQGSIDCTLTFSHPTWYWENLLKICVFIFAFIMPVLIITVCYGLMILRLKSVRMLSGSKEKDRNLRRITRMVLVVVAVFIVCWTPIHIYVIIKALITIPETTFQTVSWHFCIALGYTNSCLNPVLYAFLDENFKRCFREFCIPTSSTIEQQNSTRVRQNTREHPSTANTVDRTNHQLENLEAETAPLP
Uncharacterized hydrolase SAUSA300_2518: Uncharacterized hydrolase SAUSA300_2518 (Staphylococcus aureus, UniProt Q2FDS6)
UniProt Q91V12, sequence (whole entry, looked up): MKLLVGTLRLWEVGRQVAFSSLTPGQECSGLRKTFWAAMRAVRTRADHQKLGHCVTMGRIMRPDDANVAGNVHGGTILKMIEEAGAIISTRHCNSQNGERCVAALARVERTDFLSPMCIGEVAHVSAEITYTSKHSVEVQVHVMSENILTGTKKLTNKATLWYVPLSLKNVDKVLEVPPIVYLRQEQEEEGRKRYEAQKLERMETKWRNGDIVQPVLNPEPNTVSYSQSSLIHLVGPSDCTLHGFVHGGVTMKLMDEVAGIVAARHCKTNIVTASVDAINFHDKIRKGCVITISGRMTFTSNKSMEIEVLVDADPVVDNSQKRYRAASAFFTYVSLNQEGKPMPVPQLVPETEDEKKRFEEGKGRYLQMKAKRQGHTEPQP
UniProt Q6DWJ6, sequence (whole entry, looked up): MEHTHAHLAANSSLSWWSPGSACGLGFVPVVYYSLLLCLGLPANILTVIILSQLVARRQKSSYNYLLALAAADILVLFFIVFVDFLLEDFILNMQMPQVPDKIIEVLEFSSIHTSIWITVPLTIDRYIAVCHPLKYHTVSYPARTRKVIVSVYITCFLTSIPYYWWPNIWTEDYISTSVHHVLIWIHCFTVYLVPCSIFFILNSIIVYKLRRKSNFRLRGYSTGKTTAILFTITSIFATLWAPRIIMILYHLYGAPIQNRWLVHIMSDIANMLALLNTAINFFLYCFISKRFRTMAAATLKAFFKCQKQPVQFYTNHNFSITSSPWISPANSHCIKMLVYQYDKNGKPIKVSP
UniProt Q8K1N1, sequence (whole entry, looked up): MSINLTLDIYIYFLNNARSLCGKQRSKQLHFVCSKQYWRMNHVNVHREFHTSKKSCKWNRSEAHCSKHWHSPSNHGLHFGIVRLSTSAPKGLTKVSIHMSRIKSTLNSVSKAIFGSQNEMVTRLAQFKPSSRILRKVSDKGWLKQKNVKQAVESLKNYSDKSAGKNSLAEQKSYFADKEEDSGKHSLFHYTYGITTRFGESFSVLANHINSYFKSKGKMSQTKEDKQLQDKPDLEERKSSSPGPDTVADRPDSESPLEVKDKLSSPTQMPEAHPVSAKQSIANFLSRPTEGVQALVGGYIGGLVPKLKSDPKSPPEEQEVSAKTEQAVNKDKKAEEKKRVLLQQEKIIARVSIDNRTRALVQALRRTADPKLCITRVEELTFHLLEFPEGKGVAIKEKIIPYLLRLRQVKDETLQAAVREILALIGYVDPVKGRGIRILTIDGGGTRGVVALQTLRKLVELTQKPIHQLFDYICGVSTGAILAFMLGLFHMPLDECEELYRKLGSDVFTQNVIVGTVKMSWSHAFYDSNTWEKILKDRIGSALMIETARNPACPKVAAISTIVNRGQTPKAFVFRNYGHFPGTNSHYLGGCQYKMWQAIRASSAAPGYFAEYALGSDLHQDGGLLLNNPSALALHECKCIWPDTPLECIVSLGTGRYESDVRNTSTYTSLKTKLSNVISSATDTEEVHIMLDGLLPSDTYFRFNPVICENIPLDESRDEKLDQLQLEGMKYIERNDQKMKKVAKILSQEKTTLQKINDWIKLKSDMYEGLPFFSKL
UniProt P43403, sequence (whole entry, looked up): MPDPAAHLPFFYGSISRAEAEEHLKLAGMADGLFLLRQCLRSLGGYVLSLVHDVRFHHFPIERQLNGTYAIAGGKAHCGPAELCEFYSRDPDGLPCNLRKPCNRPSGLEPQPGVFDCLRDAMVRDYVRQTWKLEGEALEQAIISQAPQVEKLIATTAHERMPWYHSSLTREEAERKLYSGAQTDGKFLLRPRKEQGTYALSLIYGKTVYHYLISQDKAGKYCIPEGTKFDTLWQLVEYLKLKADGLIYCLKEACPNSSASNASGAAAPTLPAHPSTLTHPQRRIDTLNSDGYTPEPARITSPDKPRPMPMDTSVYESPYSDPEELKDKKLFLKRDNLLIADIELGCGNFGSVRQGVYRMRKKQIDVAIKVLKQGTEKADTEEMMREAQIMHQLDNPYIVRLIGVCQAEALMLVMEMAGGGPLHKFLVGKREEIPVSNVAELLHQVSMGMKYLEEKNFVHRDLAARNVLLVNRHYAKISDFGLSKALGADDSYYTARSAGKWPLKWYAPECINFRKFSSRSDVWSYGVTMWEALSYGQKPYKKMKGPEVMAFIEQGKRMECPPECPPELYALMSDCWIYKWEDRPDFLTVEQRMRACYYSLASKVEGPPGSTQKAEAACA

CCCCCCC(=O)N[C@H]1CCOC1=O
Emax (sdiA): 78.2%

CC(C)[C@@H]1NC(=O)[C@H](CC(N)=O)NC(=O)CNC(=O)[C@H](CC(N)=O)NC(=O)[C@H](C)NC(=O)[C@H](CC(=O)O)NC(=O)[C@H]([C@@H](C)O)NC(=O)[C@H](CCC(=O)O)NC(=O)CNC(=O)[C@H]([C@@H](C)O)NC(=O)[C@H](CCC(=O)O)NC(=O)[C@H](CCC(=O)O)NC(=O)[C@H](CC(=O)O)NC1=O
fluorescence polarization (KEAP1; Keap1-Nrf2 binding, inhibitor, competitive FP; 6.25 µM, 30 min, together with: Nrf2 peptide probe; lower = stronger inhibition): 0.0962 a.u. and 0.216 a.u.

C=CC(=O)NC[C@H](NC(=O)[C@H](CC1CCCCC1)NC(=O)[C@H](CCC(N)=O)NC(C)=O)C(=O)N[C@@H](CC(C)C)C(=O)N[C@@H](Cc1ccccc1)C(=O)O
KD fold reduction (Beta sliding clamp (Escherichia coli, UniProt P0A988, H175G); binding, isothermal titration calorimetry; concentration not given, 25 °C, H175G mutant peptide; baseline: wild-type peptide): 4 fold

CN(C)[C@H]1C[C@@]23CC[C@@]4(O2)C(=CC[C@]2(C)[C@@H](c5ccc6ccncc6c5)CC[C@H]24)C=C3[C@@H](O)[C@@H]1O
inhibition (RAF1 (Homo sapiens, UniProt P04049); ATP probe labelling, inhibitor, KiNativ profiling; 0.1 µM): -21.5%

O=C1NC2(CC2)COc2ncc(F)cc2[C@H]2COCCN2c2ccn3ncc1c3n2
organ-to-brain weight ratio (Sprague-Dawley rat, female, adrenals; oral, 20 mg/kg/day, 4 weeks dosing, end of recovery): 3.55 ± 0.35%

CCCC(=O)CC(=O)N[C@H]1CCOC1=O
agonist activity (lasR; reporter gene, agonist; Pseudomonas aeruginosa PAO-JP2; 100 µM, plasI-LVAgfp reporter; baseline: OdDHL at same concentration): 4%

CCN(CC)CCO.O=C(O)C(Cl)Cl
herbicidal inhibition (Eclipta prostrata; 15 mg/mL, 21 days, post-emergence, greenhouse): 56%

COCC1CCCCN1C(=O)n1cc(C(O)(c2ccccc2)c2ccccc2)nn1 (centres unmarked)
SILAC activity ratio (Pnpla8 (Mus musculus, UniProt Q8K1N1); probe labelling, inhibitor, competitive ABPP-SILAC; mouse T cells; concentration not given, 4 h, single peptide; baseline: treated over DMSO cells, lower = stronger inhibition): 1.28 and 1.31

CC[C@H](C)[C@H](NC(=O)[C@H](CCCNC(=N)N)NC(=O)[C@H](CCCNC(=N)N)NC(=O)[C@H](CC(C)C)NC(=O)[C@H](Cc1ccccc1)NC(=O)CNC(=O)CNC(=O)[C@@H](N)Cc1ccc(O)cc1)C(=O)N[C@@H](CCCNC(=N)N)C(=O)N1CCC[C@H]1C(=O)N[C@@H](CCCCN)C(=O)N[C@@H](CC(C)C)C(=O)N[C@@H](CCCCN)C(=O)O
Emax (GPR139 (Homo sapiens, UniProt Q6DWJ6); Gαz activation, agonist, BRET; HEK293T/17; 40 µM): 8% and 9.23%

Cc1cc(C(=O)Nc2nc3cccc(C)c3n2[C@H]2CCCCN(C(=O)/C=C/CN(C)C)C2)ccn1
cell cycle distribution (Trypanosoma brucei; propidium iodide flow cytometry, refers to: Multi phase; bloodstream CLK1 over-expression uninduced; concentration not given): 17% and 14.5% and 14.3%

Cn1ncc2c(Nc3ccccc3Cl)nc(Nc3ccccc3Cl)nc21
ΔTm (Tumor susceptibility gene 101 protein (Homo sapiens, UniProt Q99816); thermal stability; 800 µM): 6 °C

CN(C)CCCSC(=S)N1CCN(C(=O)/C=C/c2coc3ccccc3c2=O)CC1
MST response (Nucleoprotein (N, Tomato spotted wilt virus, UniProt P25999, Y184A); binding, microscale thermophoresis; 125 µM; dose series): 849 a.u.

C#CCCCCOc1ccc2c(c1)CCCN2C(=O)CCl
reactivity ratio (CAAX prenyl protease 2 (Homo sapiens, UniProt Q9Y256); mass spectrometry profiling, refers to: RCE1; H460 cell lysate; 100 µM over 10 µM, UniProt Q9Y256; baseline: high over low concentration): 1.53

OC[C@H]1CNCCN1C[C@@H]1CCCN1C[C@@H](Cc1ccc2ccccc2c1)N1CCN(CCc2ccc(Cl)c(Cl)c2)[C@H](Cc2ccc(O)cc2)C1
remaining binding (Oprm1; radioligand binding; rat brain membranes; 500 nM, pH 7.5, 25 °C, together with: 0.87 nM [3H]DAMGO): 110 ± 8.69%

Cc1ccc(NC(=O)CCc2cccc(NC3=CC(=O)N(C4CCC(=O)NC4=O)C3=O)c2)cc1Cl (centres unmarked)
log2 fold change (Cereblon/Casein kinase I alpha (CSNK1A1/CRBN, Homo sapiens, UniProt P48729+Q96SW2); degrader, quantitative proteomics, refers to: protein abundance; human regulatory T cells; 1 µM, 4 h; baseline: DMSO): -1.11

N[C@H](C(=O)N1CCCC1)C1CCN(c2nccc3c(-c4ncc(Cl)cc4Cl)cccc23)CC1
kcat (PADI2 (Homo sapiens, UniProt Q9Y2J8); enzyme activity; 3.84 µM, together with: Ca2+ 0.25 mM): 0.0202 s⁻¹

O=C(Nc1ccncc1)c1ccccc1OS(=O)(=O)F
remaining activity (Uncharacterized hydrolase SAUSA300_2518; enzyme activity, inhibitor, fluorogenic substrate; 1 µM): 68.9% and 61.7% and 72.8%

CS(C)(=O)=Nc1ccc(-c2ccc(-c3nc4cc(O[C@@H]5CO[C@H]6[C@@H]5OC[C@H]6O)[nH]c4cc3F)cc2)cc1
inhibition (DYRK1B (Homo sapiens, UniProt Q9Y463); enzyme activity, inhibitor; 10 µM): 2%

COc1ccccc1-c1n[nH]c2nc(N[C@H]3CC[C@H](NS(=O)(=O)CC(C)C)CC3)ncc12
remaining binding (cdc2-related kinase 12 (Leishmania donovani, UniProt A0A3S7WQK2); kinobead competition pull-down; Leishmania donovani, cell extract; 0.016 µM, unit not given; baseline: vehicle): 0.11

C[C@H](NCc1ccc(-c2ccc(C(F)(F)F)cc2)cc1)C(N)=O
inhibition (protein kinase C, rat; enzyme activity; biochemical; 1 µM, together with: histone 370 µg/mL): 12%

CC(C)[C@H]1NC(=O)C[C@H]2/C=C/CCSSC[C@@H](NC1=O)C(=O)N[C@H](Cc1cccc3ccccc13)C(=O)NCC(=O)O2
inhibition (Protein kinase C beta type, isoform beta-I (PRKCB, Homo sapiens, UniProt P05771); 10 µM): 1%

CC(C)C[C@@H](N)C(=O)NCC(=O)N[C@H](C)C(=O)N[C@H](CO)C(=O)N[C@H](Cc1c[nH]c2ccccc12)C(=O)N[C@H](Cc1c[nH]cn1)C(=O)N[C@H](CCCNC(=N)N)C(=O)N1CCC[C@@H]1C(=O)N[C@H](CC(=O)O)C(=O)N[C@H](CCCCN)C(=O)N[C@H](CCCCN)C(=O)N[C@H](CCCNC(=N)N)C(=O)NCCCCCC(=O)N[C@H](CCCCN)C(=O)N[C@H](CCCNC(=N)N)C(=O)N[C@H](CCCCN)C(=O)N[C@H](CCC(N)=O)C(=O)N[C@H](CCCNC(=N)N)C(=O)NCC(=O)N1CCC[C@@H]1C(=O)NCC(=O)N[C@H](CCCNC(=N)N)C(=O)N[C@H](C)C(=O)N[C@H](Cc1ccccc1)C(N)=O
cell migration (CXCR4 (Homo sapiens, UniProt P61073); chemotaxis, antagonist; SUP-T1; 10 µM, together with: SDF-1alpha): inhibited

CC(C)(C)C(=O)OCOP(=O)(OCOC(=O)C(C)(C)C)C1CCCN(O)C1=O (centres unmarked)
TGI (OVCAR-5): 62.7 µM

O=C(CCc1ccc(C(F)(F)F)cc1)N[C@H]1CCOC1=O
EC50 ratio (lasR; plasI-LVAgfp reporter, agonist; baseline: pump-active over pump-mutant): 16

Cc1cc(Nc2nc(C[C@@]3(C(=O)O)CCN(Cc4cccc(Cl)c4F)[C@H](C)C3)cc(C)c2F)[nH]n1
activation (CCKAR (Homo sapiens, UniProt P32238); agonist; 10 µM): -0.11%

CCOC(=O)[C@@H]1Cc2c(cc([N+](=O)[O-])cc2[N+](=O)[O-])[C@H](O)[C@]12C(=O)Nc1ccc(Br)cc12
remaining binding (ZAP70 (Homo sapiens, UniProt P43403); binding, competition with immobilised ligand; 0.1 µM): 74%

CCNC(=S)NN=Cc1c2ccccc2cc2ccccc12.Cc1ccc(C(C)C)cc1.[Cl-].[Cl-].[Ru+2]
ΔG° (Albumin (ALB, Homo sapiens, UniProt P02768); binding, fluorescence titration; human serum albumin; 301 K): -6.88 kcal/mol

CC[C@H](C)[C@H](NC(=O)[C@H](CO)NC(=O)[C@H](Cc1ccc(O)cc1)NC(=O)[C@H](Cc1ccc(O)cc1)NC(=O)[C@H](CC(N)=O)NC(=O)CNC(=O)[C@H](CO)NC(=O)[C@H](Cc1ccc(O)cc1)NC(=O)[C@H](CO)NC(=O)[C@H](CO)NC(=O)[C@H](CC(N)=O)NC(=O)COCCOCCNC(=O)CN1CCN(CC(=O)O)CCN(CC(=O)O)CCN(CC(=O)O)CC1)C(=O)N[C@@H](CC(C)C)C(N)=O [copper-64 labelled]
tissue uptake (dynamic PET; KPC mouse Ptf1a-CreER tdTomato, pancreas; intravenous, dose not given, 3.5 min, 84 d after tamoxifen): 14.1 %ID/mL

O=C(CCc1ccc(Br)cc1)N[C@H]1CCOC1=O
EC50 ratio (lasR; plasI-LVAgfp reporter, agonist; baseline: pump-active over pump-mutant): > 8.3

CN1CCCN(C(=O)c2ccc(S(=O)(=O)F)cc2)c2ccccc21
remaining activity (Uncharacterized hydrolase SAUSA300_2518; enzyme activity, inhibitor, fluorogenic substrate; 50 µM): 103%

[CH3][Ti+2][O]C(=O)c1ccc([S][Au][PH](c2ccccc2)(c2ccccc2)c2ccccc2)cc1.c1cc[cH-]c1.c1cc[cH-]c1
remaining kinase activity (PRKCG (Homo sapiens, UniProt P05129); inhibitor, radiometric HotSpot; 1 µM, together with: 10 µM ATP; baseline: DMSO vehicle): 135% and 132%

CC[C@@H](C)[C@@H]1CN([C@@H](CC2CCCCC2)CN2CCC[C@H]2CN2CCNC[C@@H]2Cc2ccc3ccccc3c2)CCN1CCc1ccc(Cl)c(Cl)c1
remaining binding (Oprm1; radioligand binding; rat brain membranes; 500 nM, pH 7.5, 25 °C, together with: 0.87 nM [3H]DAMGO): 107 ± 6.13%

CC(C)C[C@@H]1NC(=O)[C@H](C(C)C)NC(=O)[C@H](CCC(=O)O)NC(=O)CNC(=O)[C@H]([C@@H](C)O)NC(=O)[C@H](CCC(=O)O)NC(=O)[C@H](CCC(=O)O)NC(=O)[C@H](CC(=O)O)NC(=O)[C@H](C(C)C)NC(=O)[C@H]([C@@H](C)O)NC(=O)CNC(=O)[C@H](CC(=O)O)NC(=O)[C@@H]2CCCN2C1=O
fluorescence polarization (KEAP1; Keap1-Nrf2 binding, inhibitor, competitive FP; 25 µM, 30 min, together with: Nrf2 peptide probe; lower = stronger inhibition): 0.189 a.u. and -0.0547 a.u.

O=C(CC(=O)N[C@H]1CCOC1=O)Cc1ccccc1
agonist activity (lasR; reporter gene, agonist; Escherichia coli JLD271; 10 µM, pSC11 and pJN105L plasmids; baseline: OdDHL at same concentration): 2%

CCCC(=O)CC(=O)N[C@H]1CCOC1=O
Emax (sdiA): 114%

COC(=O)[C@@H](NC(=O)c1nn(Cc2ccc(F)cc2)c2cc(OCCCCNC(=N)N)ccc12)C(C)(C)C
Emax (CNR1 (Homo sapiens, UniProt P21554); G-protein signalling, agonist, cAMP; HEK293T cells, transfected): 106%

CC(C)CC(O)(CC(C)C)c1cn(C(=O)N2CCCC2)nn1
SILAC activity ratio (Cytosolic acyl coenzyme A thioester hydrolase (Acot7, Mus musculus, UniProt Q91V12); probe labelling, inhibitor, competitive ABPP-SILAC, refers to: Acot7; mouse T cells; concentration not given, 4 h, single peptide; baseline: treated over DMSO cells, lower = stronger inhibition): 1.1 and 1.28 and 1.06 and 1.15

O=C1NC(=O)c2c1c1cc(F)c[n+]3c1c1c2c2cc(O)ccc2[n]1[Ru-4]312([N]=C=S)[S+]3CC[S+]1CC[S+]2CC3 (centres unmarked)
remaining activity (NEK11 (Homo sapiens, UniProt Q8NG66); enzyme activity; 100 nM, human enzyme, together with: 10 µM ATP; baseline: untreated): 94%

A few entries again:
O=C(CCc1ccc(C(F)(F)F)cc1)N[C@H]1CCOC1=O
EC50 ratio (lasR; plasI-LVAgfp reporter, agonist; baseline: pump-active over pump-mutant): 16

Cc1cc(Nc2nc(C[C@@]3(C(=O)O)CCN(Cc4cccc(Cl)c4F)[C@H](C)C3)cc(C)c2F)[nH]n1
activation (CCKAR (Homo sapiens, UniProt P32238); agonist; 10 µM): -0.11%

CCOC(=O)[C@@H]1Cc2c(cc([N+](=O)[O-])cc2[N+](=O)[O-])[C@H](O)[C@]12C(=O)Nc1ccc(Br)cc12
remaining binding (ZAP70 (Homo sapiens, UniProt P43403); binding, competition with immobilised ligand; 0.1 µM): 74%
